Measured values of several laboratories.
Lines come from different studies, so protocols differ. Values joined by “and” are separate records of one study, mostly repeats; a detail may differ. ± gives the spread as reported. ≈ marks a conversion by molar mass, not a printed value.
IDE: Insulin-degrading enzyme (IDE, Homo sapiens, UniProt P14735)

CC(=O)Oc1ccccc1C(=O)Nc1ncc([N+](=O)[O-])s1  parasite number (Cryptosporidium parvum; HCT-8; EC50, 24 h; reference: DMSO control): 75.9% and 105% and 96.2% and 111%
Nc1nc(-c2ccccc2)nc2[nH]nc(Nc3ccc(C(F)(F)F)cc3)c12  clinical score (coxsackievirus B3; 31-1-93, NMRI mice, CVB3 chronic myocarditis; oral, 100 mg/kg twice daily, day 12, dosed days 0 to 6, score scale 0 to 7; direction not given): 0.1
CCOc1ccc2cc(-c3nn(CC4CCNCC4)c4ncnc(N)c34)ccc2c1  % of maximum PPE (Theileria equi; hydroethidine flow cytometry; USDA Florida; 6 µM, 72 h): 25.5%
CC(C)n1ncc2c(C(=O)NCC3(C)CNC3)cc(C3CC3)nc21  plaque reduction (enterovirus D68; recombinant US/MO/14-18947 wild type; 500 nM): 97.8% and 93.8%
COC1=CC(c2ccc[nH]2)=N/C1=C\c1[nH]c(C)cc1Cc1ccc(OC(F)(F)F)cc1.Cl  parasitaemia reduction (Plasmodium yoelii; CF1 mice; oral, 25 mg/kg daily for 4 days, day 5; reference: vehicle): 100%
C=CC[C@@H]1c2ccc(OC)c(OC)c2CN2CCc3cc4c(cc3[C@H]12)OCO4  relative wound size (Staphylococcus aureus; P2rx7+/+ mice, skin wound infection; dose not given, day 3; reference: day 0): 0.78 and 0.67 and 0.62 and 1 and 0.46
CCOC1=CC(c2ccc[nH]2)=N/C1=C\c1cc(Cc2ccc(Cl)cc2)c(C)[nH]1.Cl  parasitaemia reduction (Plasmodium yoelii; CF1 mouse; oral, 80 mg/kg single dose, day 5): 100%
N=C(N)c1ccc(OCc2ccc(-c3ccccc3)cc2COc2ccc(C(=N)N)cc2)cc1  FICI (Escherichia coli; checkerboard; mcr-1 polymyxin-resistant; unit not given, with: rifampicin; lower = stronger synergy): 0.078
CN[C@H](CC(C)C)C(=O)N[C@H]1C(=O)N[C@@H](CC(N)=O)C(=O)N[C@H]2C(=O)N[C@H]3C(=O)N[C@H](C(=O)N[C@H](C(=O)O)c4cc(O)cc(O)c4-c4cc3ccc4O)[C@H](O)c3ccc(c(Cl)c3)Oc3cc2cc(c3O[C@@H]2O[C@H](CO)[C@@H](O)[C@H](O)[C@H]2O[C@H]2C[C@](C)(N)[C@H](O)[C@H](C)O2)Oc2ccc(cc2Cl)[C@H]1O  post-antibiotic effect (Staphylococcus aureus; MRSA ATCC 43300; 4 × MIC): 1.19 h
CN1CCN(c2cnc3c(cc(C(=O)NCc4ccc(Cl)cc4)c(=O)n3CC(=O)N3CC(C)(F)C3)n2)C1=O  EC50 (herpes simplex virus 1; viral cytopathic effect; Vero; 120 h): 380 nM
CCOC(=O)c1cc(-c2nc3ccccc3s2)c(=O)n(NS(=O)(=O)c2ccc(C)cc2)c1N  plaque reduction (coxsackievirus B4; viral replication, plaque; BGM; non-toxic dose, mean of three titres): 20%
O=c1c2cc(Oc3ccc(OC(F)(F)F)cc3)ccc2[nH]c2cc(Cl)cc(F)c12  ED50 (Plasmodium yoelii; antimalarial activity; CF1 mouse; oral, once daily for 4 days): 1.44 mg/kg
CC[C@H]1OC(=O)[C@H](C)[C@@H](O[C@H]2C[C@@](C)(OC)[C@@H](O)[C@H](C)O2)[C@H](C)[C@@H](O[C@@H]2O[C@H](C)C[C@H](N(C)C)[C@H]2O)[C@](C)(O)C[C@@H](C)CN(C)[C@H](C)[C@@H](O)[C@]1(C)O  inhibition (Chromobacterium violaceum; violacein production; ATCC 31532; 400 µM, quorum sensing reporter): 92.9%
CCc1ccc(C(=O)NC(=O)c2ccccc2O)cc1  IC50 (Plasmodium yoelii; 17XL; 384-well): 113 ± 53 nM
CCOc1ccc2cc(-c3nn(CC4CCN(C)CC4)c4ncnc(N)c34)ccc2n1  % of maximum PPE (Theileria equi; hydroethidine flow cytometry; USDA Florida; 3 µM, 72 h): 90.6%
Cc1[nH]c(C)c(-c2ccc(-c3ccc(Cl)cc3)cc2)c(=O)c1Cl  IC50 (Plasmodium yoelii; 17XL; 384-well): 209 ± 48 nM
CC(=O)c1c(O)c(C)c(O)c2c1OC1=CC(=O)C(C(C)=O)C(=O)C12C (stereo not drawn)  IC50 (Trichomonas gallinae; CCK-8; trophozoites; 24 h): 15400 nM
OC[C@H]1[C@@H](c2ccc(C#Cc3ccccc3F)cc2)[C@@H]2CN(Cc3cncnc3)CCCCN12  EC50 (IDE; enzyme activity, inhibitor, fluorogenic kinetic; with: Mca-RPPGFSAFK(Dnp)-OH substrate): 5200 nM
Cc1[nH]c(C)c(-c2ccc(C#Cc3ccc(F)cc3F)cc2)c(=O)c1Br  IC50 (Plasmodium yoelii; 17XL; 384-well): 129 ± 35 nM
CCOc1ccc2cc(-c3nn(CC4CCN(C)CC4)c4ncnc(N)c34)ccc2c1  % of maximum PPE (Theileria equi; hydroethidine flow cytometry; USDA Florida; 6 µM, 72 h): 36.5%
CC(C)c1cnn2c(NCc3ccccc3-n3cccn3)nc(OC3CCCNC3)nc12 (stereo not drawn)  IC50 (herpes simplex virus 1; viral replication; K26, GFP-expressing, 3D bioprinted skin, submerged): 670 nM
CNC(C)C1CCC(N)C(OC2C(N)CC(N)C(OC3OCC(C)(O)C(NC)C3O)C2O)O1 (stereo not drawn)  MIC (Pseudomonas aeruginosa; clinical isolate RKI-No_479/15): 4 µg/mL (≈ 8.38 µM)
COC1=CC(c2ccc[nH]2)=N/C1=C\c1cc(Cc2ccc(OC(F)(F)F)cc2)c(C)[nH]1.Cl  parasitaemia reduction (Plasmodium yoelii; CF1 mouse; oral, 80 mg/kg single dose, day 5): 100%
COC(=O)[C@H](Cc1c[nH]c2ccccc12)NCc1cc2ccccc2nc1OC  growth (Pseudomonas aeruginosa; 16 µg/mL, with: pentamidine 50 µM; reference: control): 96.6%
Cc1ccccc1-c1ccc([C@@H]2[C@@H](CO)N3C(=O)CCCCCCN(S(=O)(=O)c4ccccc4C(F)(F)F)C[C@@H]23)cc1  EC50 (IDE; enzyme activity, inhibitor, fluorescence kinetic; with: Mca-RPPGFSAFK(Dnp)-OH substrate): 60 nM
CN[C@H](CC(C)C)C(=O)N[C@H]1C(=O)N[C@@H](CC(N)=O)C(=O)N[C@H]2C(=O)N[C@H]3C(=O)N[C@H](C(=O)N[C@H](C(=O)O)c4cc(O)cc(O)c4-c4cc3ccc4O)[C@H](O)c3ccc(c(Cl)c3)Oc3cc2cc(c3O[C@@H]2O[C@H](CO)[C@@H](O)[C@H](O)[C@H]2O[C@H]2C[C@](C)(N)[C@H](O)[C@H](C)O2)Oc2ccc(cc2Cl)[C@H]1O  MIC50 (Streptococcus pyogenes; ATCC 19615; 1 strain): 0.25 µg/mL (≈ 0.173 µM)
Cc1[nH]c(/C=C2\N=C(c3ccc[nH]3)C=C2OCc2ccccc2)cc1Cc1ccc(OC(F)(F)F)cc1  parasitaemia reduction (Plasmodium yoelii; CF1 mice; oral, 10 mg/kg daily for 4 days, day 5; reference: vehicle): 97.6%
O=C(Nc1cccc(C2=NCCN2)c1)Nc1cccc(C2=NCCN2)c1  inhibition (Theileria equi; parasite growth, flow cytometry; horse erythrocytes, USDA Florida strain; 0.086 µM, 72 h): 12.5%
N=C(N)c1cccc(OCc2ccc(COc3cccc(C(=N)N)c3)cc2)c1  MIC of compound in combination (Escherichia coli; checkerboard; mcr-1 polymyxin-resistant; concentration not given, 20 h, with: rifampicin): 50 µg/mL
C=Cc1cc(NC(=O)N2CCc3cc(OC)c(C(F)(F)F)cc32)cc(-c2cccnc2)c1  IC50 (Plasmodium yoelii; 17XL; 384-well): > 20000 nM
C[C@@H]1OC(=O)[C@H](Cc2ccccc2)[C@H]1O  EC50 (Pseudokirchneriella subcapitata; growth rate; 72 h, static test): > 9 µg/mL
N#Cc1ccc(CN2CCC(Oc3ccc(NC(=O)c4cccs4)cc3Cl)CC2)cc1  IC50 (Plasmodium yoelii; 17XL; 384-well): 2430 ± 374 nM
CC(=O)NC[C@H]1CN(c2ccc(N3CCOCC3)c(F)c2)C(=O)O1  MIC50 (Staphylococcus epidermidis; methicillin-resistant, 10 isolates; serum 50%): 2 µg/mL (≈ 5.93 µM)
Cc1cc(=O)c(-c2ccc(Oc3cccc(OC(F)(F)F)c3)cc2)c(C)[nH]1  IC50 (Plasmodium yoelii; 17XL; 384-well): 450 ± 215 nM
COC1=CC(c2ccc[nH]2)=N/C1=C\c1[nH]c(Cc2ccc(OC(F)(F)F)cc2)cc1Cc1ccc(OC(F)(F)F)cc1  parasitaemia reduction (Plasmodium yoelii; CF1 mice; oral, 10 mg/kg daily for 4 days, day 5; reference: vehicle): 100%
Cc1cc(=O)c(-c2ccc(OCCSc3ccc(C(F)(F)F)cn3)cc2)c(C)[nH]1  IC50 (Plasmodium yoelii; 17XL; 384-well): 454 ± 355 nM
N#Cc1cc(-c2nc3ccccc3s2)c(=O)n(NS(=O)(=O)c2ccccc2)c1N  plaque reduction (coxsackievirus B4; viral replication, plaque; BGM; non-toxic dose, mean of three titres): 63.3%
Cc1[nH]c(C)c(-c2ccc(-c3ccc(F)cc3)cc2)c(=O)c1Br  IC50 (Plasmodium yoelii; 17XL; 384-well): 721 ± 227 nM
CCC1=C(CC)/C(=C/c2[nH]c(Cc3ccc(Cl)cc3)cc2Cc2ccc(Cl)cc2)N=C1c1ccc[nH]1  ED90 (Plasmodium yoelii; parasitaemia; mouse; 4-day treatment, parasitaemia day 5): 4.17 mg/kg/day
